Assay results pooled from the literature.
Compare with care: the assays were run in different laboratories. Numbers after ± are the reported error.
Gamma-aminobutyric acid receptor subunit alpha-4/beta3/delta: Gamma-aminobutyric acid receptor subunit alpha-4/beta3/delta (Homo sapiens, UniProt O14764+P28472+P48169)
UniProt P48169, sequence (whole entry, looked up): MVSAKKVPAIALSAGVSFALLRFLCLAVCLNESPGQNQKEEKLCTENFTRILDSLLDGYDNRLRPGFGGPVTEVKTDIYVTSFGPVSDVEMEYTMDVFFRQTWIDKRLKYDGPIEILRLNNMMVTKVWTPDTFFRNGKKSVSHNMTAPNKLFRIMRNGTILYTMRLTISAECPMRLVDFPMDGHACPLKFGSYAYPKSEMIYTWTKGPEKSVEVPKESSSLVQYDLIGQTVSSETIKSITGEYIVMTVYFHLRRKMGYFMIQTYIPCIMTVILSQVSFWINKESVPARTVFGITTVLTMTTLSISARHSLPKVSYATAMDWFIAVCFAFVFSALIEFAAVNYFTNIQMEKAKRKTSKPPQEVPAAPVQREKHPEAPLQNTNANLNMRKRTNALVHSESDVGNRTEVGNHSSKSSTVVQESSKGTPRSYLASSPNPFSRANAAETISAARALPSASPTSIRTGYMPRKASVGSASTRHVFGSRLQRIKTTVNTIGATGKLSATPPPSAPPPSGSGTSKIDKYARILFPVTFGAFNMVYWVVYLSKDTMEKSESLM
UniProt P28472, sequence (whole entry, looked up): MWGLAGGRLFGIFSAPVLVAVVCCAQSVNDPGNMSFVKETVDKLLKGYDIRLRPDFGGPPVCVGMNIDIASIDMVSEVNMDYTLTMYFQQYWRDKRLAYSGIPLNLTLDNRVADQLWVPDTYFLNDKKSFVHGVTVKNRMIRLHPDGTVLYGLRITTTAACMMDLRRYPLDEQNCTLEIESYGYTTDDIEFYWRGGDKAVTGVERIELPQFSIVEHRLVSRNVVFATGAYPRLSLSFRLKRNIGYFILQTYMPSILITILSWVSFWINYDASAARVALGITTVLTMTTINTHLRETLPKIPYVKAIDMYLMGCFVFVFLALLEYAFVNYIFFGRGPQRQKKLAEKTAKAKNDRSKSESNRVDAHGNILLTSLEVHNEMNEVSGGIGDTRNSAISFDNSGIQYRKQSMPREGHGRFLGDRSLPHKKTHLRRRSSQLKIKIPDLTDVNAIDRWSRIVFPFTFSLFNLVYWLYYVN
UniProt O14764, sequence (whole entry, looked up): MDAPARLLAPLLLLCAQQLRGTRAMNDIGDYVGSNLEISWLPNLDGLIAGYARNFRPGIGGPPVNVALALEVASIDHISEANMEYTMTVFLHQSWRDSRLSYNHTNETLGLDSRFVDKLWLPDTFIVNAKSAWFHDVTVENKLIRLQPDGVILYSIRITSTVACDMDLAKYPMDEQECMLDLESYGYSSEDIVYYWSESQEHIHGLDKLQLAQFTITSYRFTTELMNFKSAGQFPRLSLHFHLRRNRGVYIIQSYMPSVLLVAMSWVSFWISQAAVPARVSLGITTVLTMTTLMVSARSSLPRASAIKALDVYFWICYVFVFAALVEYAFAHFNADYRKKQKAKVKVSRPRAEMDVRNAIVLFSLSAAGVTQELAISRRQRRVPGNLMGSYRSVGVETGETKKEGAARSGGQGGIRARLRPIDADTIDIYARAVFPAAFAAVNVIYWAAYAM
UniProt Q06520, sequence (whole entry, looked up): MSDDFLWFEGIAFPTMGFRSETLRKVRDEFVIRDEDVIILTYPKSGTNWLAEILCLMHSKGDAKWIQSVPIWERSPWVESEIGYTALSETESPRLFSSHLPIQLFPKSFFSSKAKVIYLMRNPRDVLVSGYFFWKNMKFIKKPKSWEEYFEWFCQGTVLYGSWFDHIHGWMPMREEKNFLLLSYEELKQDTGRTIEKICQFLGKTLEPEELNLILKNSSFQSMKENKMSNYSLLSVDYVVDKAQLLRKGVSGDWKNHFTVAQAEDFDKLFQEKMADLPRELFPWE
UniProt P07148, sequence (whole entry, looked up): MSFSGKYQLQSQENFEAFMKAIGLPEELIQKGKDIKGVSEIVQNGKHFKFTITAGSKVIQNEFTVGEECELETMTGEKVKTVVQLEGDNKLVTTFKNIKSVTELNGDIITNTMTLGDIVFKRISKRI
UniProt P41146, sequence (whole entry, looked up): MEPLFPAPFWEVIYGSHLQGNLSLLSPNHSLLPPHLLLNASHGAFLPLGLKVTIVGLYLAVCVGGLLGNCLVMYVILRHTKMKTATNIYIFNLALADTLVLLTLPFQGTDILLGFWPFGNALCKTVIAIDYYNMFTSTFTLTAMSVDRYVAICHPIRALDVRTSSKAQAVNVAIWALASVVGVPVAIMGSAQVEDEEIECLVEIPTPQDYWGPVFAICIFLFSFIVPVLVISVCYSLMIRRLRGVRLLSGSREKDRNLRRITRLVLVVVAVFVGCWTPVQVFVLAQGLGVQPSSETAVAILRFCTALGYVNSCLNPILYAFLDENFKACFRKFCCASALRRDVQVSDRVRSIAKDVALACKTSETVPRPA
UniProt P20272, sequence (whole entry, looked up): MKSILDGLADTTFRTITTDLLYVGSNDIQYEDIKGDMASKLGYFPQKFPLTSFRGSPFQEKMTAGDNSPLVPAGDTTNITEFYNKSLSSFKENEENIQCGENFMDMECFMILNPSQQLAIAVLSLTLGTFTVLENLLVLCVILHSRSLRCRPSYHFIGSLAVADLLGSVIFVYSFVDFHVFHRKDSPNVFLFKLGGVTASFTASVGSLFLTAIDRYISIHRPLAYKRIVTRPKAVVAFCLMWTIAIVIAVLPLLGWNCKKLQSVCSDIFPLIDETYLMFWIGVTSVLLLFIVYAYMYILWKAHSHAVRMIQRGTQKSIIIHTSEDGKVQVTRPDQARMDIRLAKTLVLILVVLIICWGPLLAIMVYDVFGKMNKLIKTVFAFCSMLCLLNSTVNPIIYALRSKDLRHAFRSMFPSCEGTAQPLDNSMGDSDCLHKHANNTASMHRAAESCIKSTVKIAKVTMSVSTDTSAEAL
UniProt P9WPA5, sequence (whole entry, looked up): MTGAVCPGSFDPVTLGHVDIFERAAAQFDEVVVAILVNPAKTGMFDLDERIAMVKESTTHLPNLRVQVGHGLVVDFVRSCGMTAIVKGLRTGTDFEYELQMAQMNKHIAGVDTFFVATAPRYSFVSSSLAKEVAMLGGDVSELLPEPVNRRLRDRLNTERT
UniProt A0QZ49, sequence (whole entry, looked up): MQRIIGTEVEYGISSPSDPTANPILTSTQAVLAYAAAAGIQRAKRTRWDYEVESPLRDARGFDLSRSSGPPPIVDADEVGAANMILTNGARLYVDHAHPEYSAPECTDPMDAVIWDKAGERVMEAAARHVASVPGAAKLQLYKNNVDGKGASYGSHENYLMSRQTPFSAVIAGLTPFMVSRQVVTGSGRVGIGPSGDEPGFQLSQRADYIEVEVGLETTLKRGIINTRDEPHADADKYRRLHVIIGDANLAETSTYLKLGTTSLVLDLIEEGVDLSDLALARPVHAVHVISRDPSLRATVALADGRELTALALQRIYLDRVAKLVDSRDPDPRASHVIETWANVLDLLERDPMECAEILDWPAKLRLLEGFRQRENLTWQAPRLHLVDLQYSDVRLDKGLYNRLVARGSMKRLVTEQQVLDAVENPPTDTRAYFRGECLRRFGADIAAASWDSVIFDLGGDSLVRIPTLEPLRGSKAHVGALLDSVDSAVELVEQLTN
UniProt P19484, sequence (whole entry, looked up): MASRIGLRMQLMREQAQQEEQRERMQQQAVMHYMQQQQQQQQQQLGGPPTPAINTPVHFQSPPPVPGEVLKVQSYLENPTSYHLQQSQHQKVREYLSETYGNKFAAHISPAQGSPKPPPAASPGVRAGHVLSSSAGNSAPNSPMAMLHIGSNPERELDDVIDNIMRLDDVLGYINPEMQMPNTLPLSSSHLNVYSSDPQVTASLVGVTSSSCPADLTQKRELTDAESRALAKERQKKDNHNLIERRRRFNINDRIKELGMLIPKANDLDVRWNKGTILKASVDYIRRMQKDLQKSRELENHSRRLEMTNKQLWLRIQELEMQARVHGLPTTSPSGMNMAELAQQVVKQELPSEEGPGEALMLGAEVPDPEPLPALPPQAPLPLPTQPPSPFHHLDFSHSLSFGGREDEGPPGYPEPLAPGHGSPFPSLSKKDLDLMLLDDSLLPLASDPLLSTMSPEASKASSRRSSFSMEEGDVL
UniProt Q8VD00, sequence (whole entry, looked up): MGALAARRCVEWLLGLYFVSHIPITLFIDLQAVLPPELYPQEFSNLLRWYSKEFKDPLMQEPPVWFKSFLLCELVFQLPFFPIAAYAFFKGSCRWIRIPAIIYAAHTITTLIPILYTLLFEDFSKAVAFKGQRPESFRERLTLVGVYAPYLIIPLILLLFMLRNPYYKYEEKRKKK
UniProt P47746, sequence (whole entry, looked up): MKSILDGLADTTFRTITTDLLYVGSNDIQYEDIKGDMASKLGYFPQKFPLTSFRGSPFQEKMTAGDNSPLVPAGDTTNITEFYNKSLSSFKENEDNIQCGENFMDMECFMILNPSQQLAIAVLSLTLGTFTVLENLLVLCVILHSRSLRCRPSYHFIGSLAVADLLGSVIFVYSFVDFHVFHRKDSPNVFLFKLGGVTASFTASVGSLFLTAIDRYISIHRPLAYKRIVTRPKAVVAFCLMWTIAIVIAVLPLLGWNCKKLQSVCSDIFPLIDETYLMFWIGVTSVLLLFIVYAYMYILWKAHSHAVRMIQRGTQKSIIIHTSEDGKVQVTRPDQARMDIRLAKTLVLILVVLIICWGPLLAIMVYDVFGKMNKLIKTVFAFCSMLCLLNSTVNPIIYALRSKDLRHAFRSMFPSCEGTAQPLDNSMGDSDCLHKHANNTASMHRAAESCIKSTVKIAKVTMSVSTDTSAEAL

| Structure (SMILES) | target or system | assay | system | setting | how to read | quantity | result |
| --- | --- | --- | --- | --- | --- | --- | --- |
| CN(C(=O)/C=C/c1ccoc1)[C@@H]1CC[C@@]2(O)[C@H]3Cc4cccc5c4[C@@]2(CCN3CC2CC2)[C@H]1O5 | Nociceptin receptor (OPRL1, Homo sapiens, UniProt P41146) | GTPγS binding, agonist |  | cell membranes |  | EC50 | 1760 nM |
| CCCCn1cc(C(=O)c2cccc3ccccc23)c2cccc(O)c21 | Cannabinoid receptor 1 (Cnr1, Mus musculus, UniProt P47746) | GTPγS binding, antagonist |  | cell membranes |  | Kb | 40.3 nM |
| O=C(O)c1cnn(-c2ccccc2)c1OCCCc1c[nH]c2ccccc12 | Phosphopantetheine adenylyltransferase (coaD, Mycobacterium tuberculosis, UniProt P9WPA5) | ITC direct titration | 5% DMSO | pH 8.0, 25 °C |  | Kd | 15000 ± 4000 nM |
| CC(=O)[C@H]1CC[C@H]2[C@@H]3CC[C@H]4C[C@H](O)CC[C@]4(C)[C@H]3CC[C@]12C | Gamma-aminobutyric acid receptor subunit alpha-4/beta3/delta | GABA current potentiation, positive modulator, two-electrode voltage clamp | Xenopus laevis oocytes | 30 s preincubation, added: GABA EC10 |  | EC50 | 540 ± 90 nM |
| CCC(=O)O[C@](Cc1ccccc1)(c1ccccc1)[C@H](C)CNC | Voltage-gated potassium channel (Doryteuthis opalescens, UniProt Q25376) | potassium current block | Loligo opalescens | 10 °C, +60 mV |  | Kd | ~40000 nM |
| O=c1[nH]c2ccccc2n1C1CCN(CCCC(c2ccc(F)cc2)c2ccc(F)cc2)CC1 | Transcription factor EB (TFEB, Homo sapiens, UniProt P19484) | nuclear translocation, activator, GFP-TFEB imaging | AML12 | 2 h | relative to: Torin 1 | AC50 | 8330 nM |
| CCCCCc1cc(O)c2c(c1)OC(C)(C)[C@@H]1CCC(C)=C[C@@H]21 | Fatty acid-binding protein, liver (FABP1, Homo sapiens, UniProt P07148) | binding, DAUDA displacement |  | added: DAUDA 0.5 µM |  | Kd | 300 ± 340 nM |
| CN[C@@](C)(C[18F])C(=O)O |  |  | SCID mice (MDA-MB-468 xenograft) | 60 min after injection |  | tumour uptake | 3.9 ± 0.6 %ID/g |
| CC[C@H](C)[C@@H](CC(=O)N[C@@H](CCC(=O)O)CC(=O)O)NC(=O)C[C@@H](NC(=O)C[C@H](CCCN)NC(=O)C[C@H](Cc1cccc(C(F)(F)F)c1)NC(=O)C[C@@H](NC(=O)C[C@H](CCC(=O)O)NC(=O)C[C@H](Cc1c[nH]c2ccccc12)NC(=O)C[C@@H](NC(=O)C[C@@H](N)CCCN)C(C)C)C(C)C)C(C)C | HIV-1 gp41 IQN17 | fluorescence polarization |  | fluorescein-labelled compound |  | Kd | 10200 ± 300 nM |
| C[C@]12CC[C@H](O)CC1=CC[C@@H]1[C@@H]2CC[C@]2(C)C(=O)CC[C@@H]12 | Sulfotransferase 2A1 (SULT2A1, Homo sapiens, UniProt Q06520) |  |  |  |  | Kd | 600 ± 100 nM |
| CC[C@H](C)[C@@H](CC(=O)N[C@@H](CCC(=O)O)CC(=O)O)NC(=O)C[C@@H](NC(=O)C[C@H](CCCN)NC(=O)C[C@H](Cc1cccnc1)NC(=O)C[C@@H](NC(=O)C[C@H](CCC(=O)O)NC(=O)C[C@H](Cc1c[nH]c2ccccc12)NC(=O)C[C@@H](NC(=O)C[C@@H](N)CCCN)C(C)C)C(C)C)C(C)C | HIV-1 gp41 IQN17 | fluorescence polarization |  | fluorescein-labelled compound |  | Kd | 104000 ± 8200 nM |
| COc1cc(/C=C(\C#N)C(=O)c2ccc(O)c(O)c2)cc(I)c1O | Pup deamidase/depupylase (dop, Mycolicibacterium smegmatis, UniProt A0QZ49) | enzyme activity, inhibitor |  | 60 min preincubation |  | IC50 | 710 ± 80 nM |
| CC[N+](C)(C)CCC(C(N)=O)(c1ccccc1)c1ccccc1 | potassium channel | steady-state block | Doryteuthis pealeii | internal application, added: membrane potential +100 mV |  | Kd | 56300 nM |
| CC1=CC[C@@H]2[C@@H](C1)c1c(O)cc(CC#CCCCNS(C)(=O)=O)cc1OC2(C)C | Cannabinoid receptor 1 (Cnr1, Rattus norvegicus, UniProt P20272) | GTPγS binding, antagonist |  | cell membranes |  | Kb | 22 nM |
| C[C@@]1(O)CC[C@H]2[C@H](CC[C@@H]3[C@@H]2CC[C@]2(C)[C@@H](C(=O)Cn4cc(C#N)cn4)CC[C@@H]32)C1 | Gamma-aminobutyric acid receptor subunit alpha-4/beta3/delta | GABA current potentiation, positive modulator, two-electrode voltage clamp | Xenopus laevis oocytes | 30 s preincubation, added: GABA EC10 |  | EC50 | 150 ± 30 nM |
| C=CCN1CCC2(C)c3cc(O)ccc3CC1C2C (single isomer, unassigned; (-)) | Sigma intracellular receptor 2 (Tmem97, Mus musculus, UniProt Q8VD00) | ligand displacement, radioligand |  | pH 8, cell membranes |  | IC50 | 4620 nM |

Repeated from above:
| Structure (SMILES) | target or system | assay | system | setting | how to read | quantity | result |
| --- | --- | --- | --- | --- | --- | --- | --- |
| CC[C@H](C)[C@@H](CC(=O)N[C@@H](CCC(=O)O)CC(=O)O)NC(=O)C[C@@H](NC(=O)C[C@H](CCCN)NC(=O)C[C@H](Cc1cccnc1)NC(=O)C[C@@H](NC(=O)C[C@H](CCC(=O)O)NC(=O)C[C@H](Cc1c[nH]c2ccccc12)NC(=O)C[C@@H](NC(=O)C[C@@H](N)CCCN)C(C)C)C(C)C)C(C)C | HIV-1 gp41 IQN17 | fluorescence polarization |  | fluorescein-labelled compound |  | Kd | 104000 ± 8200 nM |
| COc1cc(/C=C(\C#N)C(=O)c2ccc(O)c(O)c2)cc(I)c1O | Pup deamidase/depupylase (dop, Mycolicibacterium smegmatis, UniProt A0QZ49) | enzyme activity, inhibitor |  | 60 min preincubation |  | IC50 | 710 ± 80 nM |
